Assay results collected from several papers.
Protocols differ between the studies behind these lines.
4'-phosphopantetheinyl transferase PptT: 4'-phosphopantetheinyl transferase PptT (Mycobacterium tuberculosis, UniProt O33336)
Sequence of UniProt O33336 (whole entry, looked up): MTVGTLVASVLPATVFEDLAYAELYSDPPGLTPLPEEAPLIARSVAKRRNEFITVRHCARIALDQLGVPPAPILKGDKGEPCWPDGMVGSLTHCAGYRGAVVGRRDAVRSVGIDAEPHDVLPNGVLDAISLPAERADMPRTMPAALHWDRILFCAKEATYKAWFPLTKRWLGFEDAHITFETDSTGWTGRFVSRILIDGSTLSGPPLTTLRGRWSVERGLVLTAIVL
Sequence of UniProt P34972 (whole entry, looked up): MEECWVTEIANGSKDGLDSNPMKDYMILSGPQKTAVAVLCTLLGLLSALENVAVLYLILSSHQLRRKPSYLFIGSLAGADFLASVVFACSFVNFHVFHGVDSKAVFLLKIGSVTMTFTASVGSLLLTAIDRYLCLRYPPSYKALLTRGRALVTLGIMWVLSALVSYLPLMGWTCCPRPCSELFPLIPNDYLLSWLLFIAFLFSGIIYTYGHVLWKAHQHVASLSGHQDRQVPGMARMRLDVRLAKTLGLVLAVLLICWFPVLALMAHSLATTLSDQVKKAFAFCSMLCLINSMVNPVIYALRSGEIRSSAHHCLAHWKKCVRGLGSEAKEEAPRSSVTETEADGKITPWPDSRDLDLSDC
Sequence of UniProt Q9UF33 (whole entry, looked up): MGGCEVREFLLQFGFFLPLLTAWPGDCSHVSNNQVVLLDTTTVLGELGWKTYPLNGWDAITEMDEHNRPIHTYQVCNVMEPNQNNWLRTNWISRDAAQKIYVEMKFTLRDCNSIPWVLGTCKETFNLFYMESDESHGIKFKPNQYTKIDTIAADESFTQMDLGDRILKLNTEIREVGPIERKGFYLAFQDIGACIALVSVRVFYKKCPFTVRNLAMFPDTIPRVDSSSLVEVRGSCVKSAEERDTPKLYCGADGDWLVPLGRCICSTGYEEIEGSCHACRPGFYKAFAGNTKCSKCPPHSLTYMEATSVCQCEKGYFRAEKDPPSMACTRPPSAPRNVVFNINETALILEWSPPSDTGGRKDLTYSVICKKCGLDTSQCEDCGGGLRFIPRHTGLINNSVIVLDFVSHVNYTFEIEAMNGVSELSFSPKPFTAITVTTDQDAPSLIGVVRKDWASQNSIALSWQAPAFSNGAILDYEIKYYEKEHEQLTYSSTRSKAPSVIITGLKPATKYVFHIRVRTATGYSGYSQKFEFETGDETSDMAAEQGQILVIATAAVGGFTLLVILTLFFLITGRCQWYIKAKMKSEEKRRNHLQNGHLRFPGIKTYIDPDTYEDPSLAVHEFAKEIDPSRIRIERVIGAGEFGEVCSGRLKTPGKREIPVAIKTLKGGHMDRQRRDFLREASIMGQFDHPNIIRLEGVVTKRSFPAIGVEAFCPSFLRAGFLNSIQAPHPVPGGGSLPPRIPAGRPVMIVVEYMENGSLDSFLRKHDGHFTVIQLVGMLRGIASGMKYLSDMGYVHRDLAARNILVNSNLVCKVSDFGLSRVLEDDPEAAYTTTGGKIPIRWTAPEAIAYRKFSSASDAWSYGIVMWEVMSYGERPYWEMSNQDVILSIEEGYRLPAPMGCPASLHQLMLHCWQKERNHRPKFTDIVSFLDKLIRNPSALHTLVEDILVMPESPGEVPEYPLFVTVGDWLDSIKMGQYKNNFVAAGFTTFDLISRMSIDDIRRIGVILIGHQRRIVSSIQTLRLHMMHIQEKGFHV
Sequence of UniProt P21452 (whole entry, looked up): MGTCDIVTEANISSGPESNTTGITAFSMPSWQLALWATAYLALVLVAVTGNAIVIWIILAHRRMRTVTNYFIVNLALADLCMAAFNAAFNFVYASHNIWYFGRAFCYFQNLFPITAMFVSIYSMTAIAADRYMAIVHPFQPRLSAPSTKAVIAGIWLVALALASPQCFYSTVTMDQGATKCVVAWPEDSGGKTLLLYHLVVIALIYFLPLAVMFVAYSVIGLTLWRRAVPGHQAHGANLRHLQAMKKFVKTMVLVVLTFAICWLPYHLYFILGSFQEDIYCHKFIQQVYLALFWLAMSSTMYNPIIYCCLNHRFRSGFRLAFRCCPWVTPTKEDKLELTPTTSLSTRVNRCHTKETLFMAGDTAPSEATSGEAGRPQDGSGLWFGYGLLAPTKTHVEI
Sequence of UniProt Q15835 (whole entry, looked up): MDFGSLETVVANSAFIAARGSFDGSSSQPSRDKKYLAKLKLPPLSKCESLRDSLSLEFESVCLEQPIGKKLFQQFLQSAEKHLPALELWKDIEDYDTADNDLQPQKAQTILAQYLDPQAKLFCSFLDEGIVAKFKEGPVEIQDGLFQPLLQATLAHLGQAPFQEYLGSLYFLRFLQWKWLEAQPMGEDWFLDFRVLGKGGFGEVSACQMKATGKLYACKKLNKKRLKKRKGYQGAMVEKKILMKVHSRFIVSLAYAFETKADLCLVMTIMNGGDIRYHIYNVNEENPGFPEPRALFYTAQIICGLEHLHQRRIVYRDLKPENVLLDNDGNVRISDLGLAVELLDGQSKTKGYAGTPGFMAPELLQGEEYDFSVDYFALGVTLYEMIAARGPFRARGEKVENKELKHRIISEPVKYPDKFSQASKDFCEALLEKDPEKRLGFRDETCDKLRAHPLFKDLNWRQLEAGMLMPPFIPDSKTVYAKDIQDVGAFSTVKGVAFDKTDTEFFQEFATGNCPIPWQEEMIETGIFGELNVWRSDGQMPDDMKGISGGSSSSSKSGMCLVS
Sequence of UniProt Q02294 (whole entry, looked up): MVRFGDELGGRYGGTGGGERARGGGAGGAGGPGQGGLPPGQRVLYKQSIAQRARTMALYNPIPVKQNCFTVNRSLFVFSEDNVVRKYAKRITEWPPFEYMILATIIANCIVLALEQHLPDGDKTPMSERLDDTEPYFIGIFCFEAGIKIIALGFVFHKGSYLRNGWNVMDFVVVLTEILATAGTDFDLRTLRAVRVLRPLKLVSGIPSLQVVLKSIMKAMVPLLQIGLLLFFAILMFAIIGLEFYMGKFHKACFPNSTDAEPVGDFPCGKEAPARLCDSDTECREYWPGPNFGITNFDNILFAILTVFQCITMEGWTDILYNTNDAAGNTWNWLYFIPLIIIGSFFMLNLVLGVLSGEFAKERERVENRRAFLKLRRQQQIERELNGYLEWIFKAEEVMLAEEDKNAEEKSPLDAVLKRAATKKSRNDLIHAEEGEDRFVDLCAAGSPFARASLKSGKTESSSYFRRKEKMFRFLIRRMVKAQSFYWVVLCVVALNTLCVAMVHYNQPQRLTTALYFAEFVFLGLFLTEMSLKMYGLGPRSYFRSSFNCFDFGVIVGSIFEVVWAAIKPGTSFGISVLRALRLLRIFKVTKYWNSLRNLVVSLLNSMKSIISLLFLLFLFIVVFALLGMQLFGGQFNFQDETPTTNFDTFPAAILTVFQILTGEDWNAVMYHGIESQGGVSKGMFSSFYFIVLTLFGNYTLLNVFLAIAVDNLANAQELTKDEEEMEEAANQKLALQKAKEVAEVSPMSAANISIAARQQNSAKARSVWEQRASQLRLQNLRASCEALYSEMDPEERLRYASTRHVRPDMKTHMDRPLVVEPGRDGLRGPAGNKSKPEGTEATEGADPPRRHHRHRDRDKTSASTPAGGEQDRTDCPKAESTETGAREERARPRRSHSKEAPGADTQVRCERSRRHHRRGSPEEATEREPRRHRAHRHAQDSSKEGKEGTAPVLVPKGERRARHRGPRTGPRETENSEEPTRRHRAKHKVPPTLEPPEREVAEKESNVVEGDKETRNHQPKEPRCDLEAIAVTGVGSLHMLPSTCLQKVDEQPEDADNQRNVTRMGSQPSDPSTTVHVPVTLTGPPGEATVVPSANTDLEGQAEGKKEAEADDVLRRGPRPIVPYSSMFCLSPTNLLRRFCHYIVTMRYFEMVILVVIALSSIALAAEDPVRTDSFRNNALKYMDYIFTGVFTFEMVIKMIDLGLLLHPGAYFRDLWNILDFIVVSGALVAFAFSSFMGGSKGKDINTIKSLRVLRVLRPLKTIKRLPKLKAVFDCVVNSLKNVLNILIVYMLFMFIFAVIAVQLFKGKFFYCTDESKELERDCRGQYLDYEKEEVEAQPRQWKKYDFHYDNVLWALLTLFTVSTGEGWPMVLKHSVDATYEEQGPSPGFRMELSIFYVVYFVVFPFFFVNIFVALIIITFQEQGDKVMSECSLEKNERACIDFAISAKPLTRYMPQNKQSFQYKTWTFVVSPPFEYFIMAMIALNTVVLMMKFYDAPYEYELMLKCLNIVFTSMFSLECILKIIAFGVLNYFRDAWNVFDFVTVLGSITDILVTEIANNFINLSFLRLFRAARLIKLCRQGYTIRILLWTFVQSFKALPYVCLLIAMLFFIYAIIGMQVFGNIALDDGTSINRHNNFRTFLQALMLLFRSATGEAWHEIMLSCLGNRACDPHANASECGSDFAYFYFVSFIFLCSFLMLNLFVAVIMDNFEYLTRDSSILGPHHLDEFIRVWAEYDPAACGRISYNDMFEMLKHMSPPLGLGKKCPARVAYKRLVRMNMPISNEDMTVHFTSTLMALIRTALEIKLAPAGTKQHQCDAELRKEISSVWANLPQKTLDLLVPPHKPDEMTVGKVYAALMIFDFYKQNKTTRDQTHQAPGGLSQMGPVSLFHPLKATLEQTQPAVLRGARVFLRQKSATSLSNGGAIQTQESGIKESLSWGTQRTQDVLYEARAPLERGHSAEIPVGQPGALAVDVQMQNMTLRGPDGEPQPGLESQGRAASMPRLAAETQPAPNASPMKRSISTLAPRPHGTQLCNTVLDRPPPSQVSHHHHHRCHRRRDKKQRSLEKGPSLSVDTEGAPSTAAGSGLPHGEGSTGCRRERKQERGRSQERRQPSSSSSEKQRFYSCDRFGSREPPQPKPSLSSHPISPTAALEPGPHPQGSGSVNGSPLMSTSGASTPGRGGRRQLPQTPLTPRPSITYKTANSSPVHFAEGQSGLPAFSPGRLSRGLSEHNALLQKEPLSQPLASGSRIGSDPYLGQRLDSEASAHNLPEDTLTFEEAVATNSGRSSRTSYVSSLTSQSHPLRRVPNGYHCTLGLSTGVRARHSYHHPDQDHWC

CCCCCc1ccccc1C/C=C\C/C=C\C/C=C\CCCC(=O)OC(CO)CO  Emax (CNR2 (Homo sapiens, UniProt P34972); β-arrestin recruitment, agonist): 8%
CCN(CC)CCCC[C@H](NC(=O)[C@H](CC(C)C)NC(=O)[C@H](C)NC(=O)[C@H](Cc1ccccc1)NC(=O)c1ccc(C(C)(C)C)cc1)C(=O)N[C@@H](CO)C(=O)OC  remaining binding (TACR2 (Homo sapiens, UniProt P21452); ligand displacement, radioligand; 10 µM): 24.6%
COc1ncccc1-c1cnn2ccc(N3CCN(C(=O)OC(C)C)CC3)nc12  remaining binding (CDK16 (Homo sapiens, UniProt Q00536); binding, competition with immobilised ligand; 1 µM): 100%
c1cncc([C@@H]2CCCN2)c1  inhibition (CHRM1 (Homo sapiens, UniProt P11229); cell-free assay; 50 µM): -0.55%
Nc1ncc(-c2nc(N3CCOCC3)nc(N3CCOCC3)n2)c(C(F)F)n1  remaining binding (GRK1 (Homo sapiens, UniProt Q15835); binding, competition with immobilised ligand; 10 µM): 86%
Cc1nn(C)cc1-c1nc2c(N3CCN(Cc4ccc(Cl)cc4)CC3)c(Cl)cnc2[nH]1  remaining binding (EPHA6 (Homo sapiens, UniProt Q9UF33); binding, competition with immobilised ligand; 1 µM): 100%
N#Cc1ccc(Cn2c(=S)[nH]c3ccc(Cl)cc3c2=O)cn1  IC50 (4'-phosphopantetheinyl transferase PptT; enzyme activity, inhibitor, FP): 0.54 µM
[2H]c1c([2H])c([C@]2([2H])CCCN2C(=O)C(C)(C)Oc2ccc3cn[nH]c3c2)c([2H])c([2H])c1C([2H])([2H])[2H]  remaining binding (YES1 (Homo sapiens, UniProt P07947); binding, competition with immobilised ligand; 1 µM): 61%
CC(C)CC(=O)OC[C@H]1O[C@@](C#N)(c2ccc3c(N)ncnn23)[C@H](O)[C@@H]1O  inhibition (Cacna1b (Rattus norvegicus, UniProt Q02294); cell-free assay; 20 µM): 1%
N#Cc1cc2c(=O)n(Cc3cccnc3)c(=S)[nH]c2cn1  IC50 (4'-phosphopantetheinyl transferase PptT; enzyme activity, inhibitor, FP): 6.11 µM

A few entries again:
COc1ncccc1-c1cnn2ccc(N3CCN(C(=O)OC(C)C)CC3)nc12  remaining binding (CDK16 (Homo sapiens, UniProt Q00536); binding, competition with immobilised ligand; 1 µM): 100%
